Measurements of several laboratories.
A part holds a random share of what one study measured.

Series 1 — technique: protein binding microarray; molecule type: double-stranded DNA, one strand shown; sample: in vitro; tested at: not given; reference: not given; direction: higher = stronger binding
Target: Histone acetyltransferase KAT6A, both winged helices, GST fusion (KAT6A, Homo sapiens, UniProt Q92794, residues 1-181)
Setting: 8-mer, flanks averaged, mean of 2 arrays, mostly near background
Residues (chain): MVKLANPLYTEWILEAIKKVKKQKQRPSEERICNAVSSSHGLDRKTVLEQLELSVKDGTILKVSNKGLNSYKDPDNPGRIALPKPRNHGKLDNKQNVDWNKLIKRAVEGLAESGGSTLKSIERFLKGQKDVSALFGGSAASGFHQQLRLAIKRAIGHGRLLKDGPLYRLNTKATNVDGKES
Sequence | E-score
AGTACGTA | -0.0768
ATCACGAC | -0.108
GGTCATAA | -0.0335
TAGGACCA | -0.174
ACACGATG | -0.086
GAGGTCTA | -0.00869
ATTGCCCC | -0.171
CACATTAC | 0.0851
GAAGAAGC | 0.0102
CCCAGGAA | -0.167
CATCGATG | 0.0216
AGGACGGG | 0.116
CCCGTTAA | 0.204
ACATGTAG | -0.0956
AGCTAAGC | -0.11
AAATGCTA | -0.117
CCTTCGGA | 0.0739
CCGCCAGC | 0.157
TACCGTCA | 0.162
AGCATACA | -0.0978
CCTCCGCA | -0.0484
GGCGAAAA | 0.154
GCTCAGCC | 0.00717
CCTTGCCA | -0.132
ATCGGGGA | 0.0536

Series 2 — technique: RNA Bind-n-Seq; molecule type: RNA; sample: in vitro; tested at: 200 nM; setting: whole 134-nt RNA, ends assumed; added: 150 mM KCl; reference: input library; direction: higher = stronger binding
Target: Fragile X messenger ribonucleoprotein 1, C-terminal low-complexity region (Fmr1, Mus musculus, UniProt P35922)
Sequence | log2 enrichment
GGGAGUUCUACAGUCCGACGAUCUGGCCCUGGUGGCAUGCGGGGAGGAAGAGGUGGCCUCAUGGAUCGUGGUGGUCCCGGUGGAAUGUUCAGAGGUGUCCGUGGUGGAGACAGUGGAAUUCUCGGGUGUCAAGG | 0.168
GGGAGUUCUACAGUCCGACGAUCUGUGCUACACAUCGUAUGUACCGAAUCGGGGUUUUUUUGGGGUUUUUGGGGUUUUUUUGGGGAAAGUAUUAUGUUACGCCGUUCGGAUCUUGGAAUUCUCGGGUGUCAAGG | 0.359
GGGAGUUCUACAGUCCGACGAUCUCCUGUGCUACACAUCGUAUGUACCGAAUCGGUUUUUUGGGGUUUUUUGGGUUUUUUGGGAAAGUAUUAUGUUACGCCGUUCGGAUCUGCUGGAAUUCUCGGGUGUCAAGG | 0.0616
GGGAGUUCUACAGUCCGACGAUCACCAUGCAGGUGGGCAUCUUUGGGAAGUGGGGCAAGGGGGGGAUAGGGAGGGGGGUAACACUUUGGGAACAGGUGGUCCCAGAUCGUUUCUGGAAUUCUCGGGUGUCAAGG | 0.757
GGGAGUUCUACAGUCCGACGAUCUUUGAAGGUGAUUUCUGGCCCAAUGUGUUAGAAGAGAGCAUUAAGGAACUAGAACAAGAAGAAGAGGAGAGGAAAAAGGAAGAGAGCACUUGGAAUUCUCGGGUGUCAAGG | -0.335
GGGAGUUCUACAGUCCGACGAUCACUGGACCAGAUUGUUGAAAAAGGAAGACCAGCUCCUGGCUUCCAUCAUGGCGAUGGACCGGGAAAUGCAGUUCAAGAAAUCAUGAUUCCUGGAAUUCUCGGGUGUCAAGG | -0.886
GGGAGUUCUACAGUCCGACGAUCCAAGUCCUGUGCUACACAUCGUAUGUACCGAAUCGGAAAAAGGUUUUUGGUUUGGAAAGUAUUAUGUUACGCCGUUCGGAUCUGCACUUCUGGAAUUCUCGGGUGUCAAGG | -1.01
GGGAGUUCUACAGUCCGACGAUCCAAGUCCUGUGCUACACAUCGUAUGUACCGAAUCGGUUUUUGGAAAAAGGUUUGGAAAGUAUUAUGUUACGCCGUUCGGAUCUGCACUUCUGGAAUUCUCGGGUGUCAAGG | -1.1
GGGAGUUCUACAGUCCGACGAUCUCCUGUGCUACACAUCGUAUGUACCGAAUCGGGUUUUUUGGUUUUUUGGGGUUUUUUGGGAAAGUAUUAUGUUACGCCGUUCGGAUCUGCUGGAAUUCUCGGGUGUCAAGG | -0.00607
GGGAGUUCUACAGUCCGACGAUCGUCCUGUGCUACACAUCGUAUGUACCGAAUCGGGGAAAAAGGGGUUUUUGGGGAGGGGAAAGUAUUAUGUUACGCCGUUCGGAUCUGCACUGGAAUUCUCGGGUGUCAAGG | 0.521

Series 3 — technique: RNA Bind-n-Seq; molecule type: RNA; sample: in vitro; tested at: not given; reference: input RNA pool; direction: higher = stronger binding
Target: RING finger protein unkempt homolog, zinc fingers 1-6, GST-SBP tag (UNK, Homo sapiens, UniProt Q9C0B0, residues 30-357)
UniProt Q9C0B0, sequence (30-357, looked up): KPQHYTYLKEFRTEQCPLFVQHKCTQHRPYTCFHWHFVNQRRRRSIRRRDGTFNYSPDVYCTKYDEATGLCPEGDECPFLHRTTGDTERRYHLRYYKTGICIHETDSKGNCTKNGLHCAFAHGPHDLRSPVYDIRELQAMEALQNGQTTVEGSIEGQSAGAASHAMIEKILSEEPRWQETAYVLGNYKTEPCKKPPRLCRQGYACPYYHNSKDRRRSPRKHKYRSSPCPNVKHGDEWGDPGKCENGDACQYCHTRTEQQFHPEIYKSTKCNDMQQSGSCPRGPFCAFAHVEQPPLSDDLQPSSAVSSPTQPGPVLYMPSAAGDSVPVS
Setting: RNA with constant flanks, human and mouse sites, ends assumed
Sequence | bound/input enrichment [ratio]
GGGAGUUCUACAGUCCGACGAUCGAUACUGAAUGGUCUUCUCGACCAUCGGAAGUUAGUGAAGCUUUAUUCCAGGCUACUGCAGAAGUAGCUUCAGACUUAGCAAGCAGUCGCUUUAGUGUAUCUCAGCACCCGCUUAUAGGCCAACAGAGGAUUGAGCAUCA | 0.398
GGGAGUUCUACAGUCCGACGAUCCUGUUGUAUGAAAGGAGAGAAGGAUAACAAAUUGCGGUUUUCCCUGGUAAACACAGUAAGUAGUAAACUCAGGAUUCAAAACCAAAUAUACACACCAAAUCCACUAUGUAAUAUUAAGUUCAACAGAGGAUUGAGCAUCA | 0.32
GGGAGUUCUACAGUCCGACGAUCCAGACGGAGAAAGAGGAAAAAGAAGAAGCAAGAUCAAAAUACAAAGAAGCUAAGGAAUCUUUUCAGCGUUUUCUUGAAAAUCAUGAGAAAAUGACUUCCACAACCAGAUACAAAAAAGCUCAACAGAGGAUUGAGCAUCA | 0.357
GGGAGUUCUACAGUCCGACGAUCUGAUUAUUCACUUUAGAUGCUGAUUCUUUUUUUUUUUUUUUUUUGUAUUUUUAAUGGGGGUAGCAGCUGGACCCUUGACCUUCUCAUGCCCACACCCACCCUGCCCUUCCCAUGGCUGCCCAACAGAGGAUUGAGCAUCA | 3.15
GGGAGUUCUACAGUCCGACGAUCUUCCCAAAGGCCUGGGAGCUUUUUGAAAAGAAAGAAAAAAGUGUGUUGGCUUUUUUUUUUUUUAGAAAGUUAGAAUUGUUUUUACCAAGAGUCUAUGUGGGGCUUGAUUCACCCUUCAUCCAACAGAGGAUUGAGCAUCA | 2.22
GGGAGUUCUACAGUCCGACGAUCUACGUGACAAAGAAGAAAUUGGUUACAGAGCAUAAAGACACAGAGGAUUUUAGACAAGACUUCCACUCAGAGAUGUCUGGAUUUUGUAAAGCUGCUUUGAACACUUCUGCAGGGAACUCACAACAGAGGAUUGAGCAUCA | 0.373
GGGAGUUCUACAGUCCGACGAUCAGCUUCAUGGUUAAUAAUACAUUUAUGUUGACACCUCCCUAAUCCAGGAAACAUUCACAAACAAGGACUCCCAUAUACAAAUACUUUAGGAAGAGAGAUUUCCCAGGCAGAUAUCACCAACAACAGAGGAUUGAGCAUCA | 1.68
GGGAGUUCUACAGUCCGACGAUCGUCGAUGAGAUGAUCAGGGAAGCAGACAUUGACGGGGACGGUCAGGUAAACUACGAAGAGUUUGUACAAAUGAUGACAGCGAAGUGAAGACAUUGUACAGAAUGUGUUAAAUUUCUUGUACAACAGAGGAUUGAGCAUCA | 0.292
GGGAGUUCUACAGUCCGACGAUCCAUGCAUUUUAUUGGGGAGGGGAGGUCAGAAUAAUUCACCCAAAUCUAGUGGUCUUAUUUCAUAGGCUAAUCUGGUUUAUAUUUGCAUUAAAGAUACUGGAGGGCAAUAUUUACAGAGUUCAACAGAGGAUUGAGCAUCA | 1.88
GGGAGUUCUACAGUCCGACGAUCAUGGAAAAGGAUUCUCUGCCUCGCUUUGUGCGCUCUGAGUUUUAUCAGGAGUUAAUCAAGUAGUAAUUUAGCCAGGCUAUGAAAUCAUCCUGUGAGUUAUUUCCUCCAUAAUAACCCUGCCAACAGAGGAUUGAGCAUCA | 0.541
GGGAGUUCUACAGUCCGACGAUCGGAACGUCAUUUGUCAUGGAUGUUCUACGCCCACAGAUUGUAACGUUCGAUGGACGGAAUUAUAGAAAGAAUCCCAUCCAGGAGAAACAGUACCAACAUGAAGAAGACGAGGAUUUCUAUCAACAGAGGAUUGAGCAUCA | 0.172

Series 4 — technique: aptamer microarray, sandwich; molecule type: DNA with 2'F-ANA; sample: in vitro; tested at: 200 nM; added: Cy3 exosite-II aptamer, 400 nM; direction: higher = stronger binding; sequence: GGTTGGTGTGGTTGG
Target: Prothrombin, mature alpha-thrombin (F2, Homo sapiens, UniProt P00734)
Setting: whole 15-mer aptamer, many near background
Modification | mean fluorescence intensity [a.u.]
2'F-ANA at 2 3 10 11 12 13 15 | 419
2'F-ANA at 2 3 5 6 8 10 11 12 14 | 50.1
2'F-ANA at 2 7 8 13 14 | 168
2'F-ANA at 4 5 7 10 11 14 | 42.5
2'F-ANA at 4 5 7 11 13 14 15 | 45.4
2'F-ANA at 1 6 9 10 11 14 | 57.8
2'F-ANA at 2 3 5 6 8 13 15 | 102
2'F-ANA at 1 3 5 6 8 9 10 | 53.4
2'F-ANA at 1 2 6 7 9 13 | 94.9
2'F-ANA at 1 4 9 10 11 12 14 15 | 51.9
2'F-ANA at 1 2 3 4 14 | 148
2'F-ANA at 1 3 7 8 9 11 13 14 | 99.7
2'F-ANA at 3 8 10 11 14 15 | 389
2'F-ANA at 2 4 7 9 10 11 12 13 14 | 62.3
2'F-ANA at 2 6 7 8 12 13 15 | 477
2'F-ANA at 1 3 5 6 9 10 12 15 | 54.9
2'F-ANA at 2 6 8 11 12 14 15 | 158
2'F-ANA at 4 5 6 8 9 10 14 15 | 50.9
2'F-ANA at 6 10 12 13 | 183
2'F-ANA at 1 2 4 5 11 | 47.6

Some of these lines once more (series 3):
Sequence | bound/input enrichment [ratio]
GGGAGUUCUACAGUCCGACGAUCUUCCCAAAGGCCUGGGAGCUUUUUGAAAAGAAAGAAAAAAGUGUGUUGGCUUUUUUUUUUUUUAGAAAGUUAGAAUUGUUUUUACCAAGAGUCUAUGUGGGGCUUGAUUCACCCUUCAUCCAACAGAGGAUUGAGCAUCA | 2.22
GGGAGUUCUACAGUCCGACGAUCUACGUGACAAAGAAGAAAUUGGUUACAGAGCAUAAAGACACAGAGGAUUUUAGACAAGACUUCCACUCAGAGAUGUCUGGAUUUUGUAAAGCUGCUUUGAACACUUCUGCAGGGAACUCACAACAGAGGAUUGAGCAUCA | 0.373
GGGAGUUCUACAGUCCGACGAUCAGCUUCAUGGUUAAUAAUACAUUUAUGUUGACACCUCCCUAAUCCAGGAAACAUUCACAAACAAGGACUCCCAUAUACAAAUACUUUAGGAAGAGAGAUUUCCCAGGCAGAUAUCACCAACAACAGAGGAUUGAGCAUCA | 1.68
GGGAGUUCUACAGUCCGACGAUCGUCGAUGAGAUGAUCAGGGAAGCAGACAUUGACGGGGACGGUCAGGUAAACUACGAAGAGUUUGUACAAAUGAUGACAGCGAAGUGAAGACAUUGUACAGAAUGUGUUAAAUUUCUUGUACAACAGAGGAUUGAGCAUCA | 0.292
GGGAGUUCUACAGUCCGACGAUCCAUGCAUUUUAUUGGGGAGGGGAGGUCAGAAUAAUUCACCCAAAUCUAGUGGUCUUAUUUCAUAGGCUAAUCUGGUUUAUAUUUGCAUUAAAGAUACUGGAGGGCAAUAUUUACAGAGUUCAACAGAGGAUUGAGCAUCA | 1.88
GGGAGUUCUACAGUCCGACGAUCAUGGAAAAGGAUUCUCUGCCUCGCUUUGUGCGCUCUGAGUUUUAUCAGGAGUUAAUCAAGUAGUAAUUUAGCCAGGCUAUGAAAUCAUCCUGUGAGUUAUUUCCUCCAUAAUAACCCUGCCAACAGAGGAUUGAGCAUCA | 0.541
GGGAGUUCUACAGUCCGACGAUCGGAACGUCAUUUGUCAUGGAUGUUCUACGCCCACAGAUUGUAACGUUCGAUGGACGGAAUUAUAGAAAGAAUCCCAUCCAGGAGAAACAGUACCAACAUGAAGAAGACGAGGAUUUCUAUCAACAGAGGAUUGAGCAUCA | 0.172
